Published values gathered from unrelated publications.
Lines come from different studies, so protocols differ. Several values in a cell are separate wells, animals, samples, runs or records.

[Cl-].[Cl-].[Pt+2].[Ru+2].c1ccc(-c2nc3cc4ccccc4cc3nc2-c2ccccn2)nc1.c1cnc2c(c1)ccc1cccnc12.c1cnc2c(c1)ccc1cccnc12
nicked circular DNA (pcDNA supercoiled plasmid; agarose gel electrophoresis; 10 µM, photoinduced cleavage, added: 0.1 µM pcDNA): 8.5%

Cc1c(C(=O)O)c(O)cc2c1C(=O)c1c(O)c([C@@H]3O[C@H](CO)[C@@H](O)[C@H](O)[C@H]3O)c(O)c(O)c1C2=O
activity score (human iPSC-derived cardiomyocytes; MyBP-C/MYH ratio, plate-normalised SD score; concentration not given, primary screen; direction not given): 3.4

c1coc(-c2n[nH]cc2-c2ccnc3ccccc23)c1
log2 fold change (SHA3 (Candida albicans); kinase binding, MIB/MS competition; Candida albicans lysate; 1 µM; relative to: DMSO): -0.24

O=C(/C=C/C=C/C=C/C1CCCCC1)NC1=C[C@@](O)(/C=C/C=C/C=C/C(=O)NC2=C(O)CCC2=O)[C@@H]2O[C@@H]2C1=O
GI50 (MDA-MB-436; cell growth, CellTiter-Glo; 78 h): 11.2 µM

COc1cc(NS(=O)(=O)c2ccc(N)cc2)ncn1
activity score (human iPSC-derived cardiomyocytes; MyBP-C/MYH ratio, plate-normalised SD score; concentration not given, primary screen; direction not given): 3.2

CC(C)C(=O)OC[C@@]1(F)O[C@@H](n2cnc(-c3cnc[nH]c3=O)c2)[C@H](OC(=O)C(C)C)[C@@H]1OC(=O)C(C)C
EC50 (Dengue virus; viral replication; Huh-7, DENV-2; 48 h): > 100 µM

COC1=C2C[C@@H](C)C[C@H](OC)[C@H](O)[C@@H](C)/C=C(\C)[C@H](OC(N)=O)[C@@H](OC)/C=C\C=C(/C)C(=O)NC(=CC1=O)C2=O
activity score (human iPSC-derived cardiomyocytes; MyBP-C/MYH ratio, plate-normalised SD score; concentration not given, primary screen; direction not given): 5

CCn1cc(-c2cc(Cn3ccnc3)cc3c2CCN([C@H](c2cc(OC)ccn2)C2CC2)C3=O)c(C(F)(F)F)n1
EC50 (JHOS2; cell growth; 120 h): > 30 µM

COc1ncc(-c2cn([C@@H]3O[C@](F)(COC(=O)C(C)C)[C@@H](OC(=O)C(C)C)[C@H]3OC(=O)C(C)C)cn2)c(OC)n1
EC50 (Dengue virus; viral replication; Huh-7, DENV-4; 48 h): 23 µM

COC(=O)[C@H](Cc1c[nH]c2ccccc12)NCc1cc2ccccc2nc1OC
growth (Pseudomonas aeruginosa; 8 µg/mL, added: pentamidine 100 µM; relative to: control): 51.7%

O=C(N/N=C/c1ccc([N+](=O)[O-])o1)c1ccc(O)cc1
activity score (human iPSC-derived cardiomyocytes; MyBP-C/MYH ratio, plate-normalised SD score; concentration not given, primary screen; direction not given): 3.2

CCOc1nc(N)ncc1-c1cn([C@@H]2O[C@](F)(CO)[C@@H](O)[C@H]2O)cn1
EC50 (Dengue virus; viral replication; Huh-7, DENV-4; 48 h): > 100 µM

[Cl-].[Cl-].[Pt+2].[Ru+2].c1ccc(-c2nccnc2-c2ccccn2)nc1.c1cnc2c(c1)ccc1cccnc12.c1cnc2c(c1)ccc1cccnc12
nicked circular DNA (pcDNA supercoiled plasmid; agarose gel electrophoresis; 10 µM, photoinduced cleavage, added: 0.1 µM pcDNA): 18.3%

C=C1C(=O)O[C@H]2[C@H]1CC/C(C)=C/CC[C@@]1(C)O[C@@H]21
MyBP-C level (MYBPC3 iPSC cardiomyocytes; plate-normalised; concentration not given, 24 h, hit retest): 1.7%

CCS(=O)(=O)c1nc(C2CC2)cc(C(F)(F)F)n1
cells with nuclear SREBP1 (importin beta-1; SREBP1 nuclear import, high content imaging; HeLa Kyoto; 50 µM, 3 h, added: glucose and MG132): 51.1% and 54.4% and 66.1% and 66.9%

[Cl-].[Cl-].[Pt+2].[Ru+2].c1ccc(-c2nc3ccccc3nc2-c2ccccn2)nc1.c1cnc2c(c1)ccc1cccnc12.c1cnc2c(c1)ccc1cccnc12
nicked circular DNA (pcDNA supercoiled plasmid; agarose gel electrophoresis; 20 µM, photoinduced cleavage, added: 0.1 µM pcDNA): 11.7%

CC(Nc1nc(N2CCCC2)nc2ccccc12)c1ccccc1 (stereo not shown)
cells with nuclear SREBP1 (importin beta-1; SREBP1 nuclear import, high content imaging; HeLa Kyoto; 50 µM, 3 h, added: glucose and MG132): 75.2% and 92% and 79%

CC(N/C(=N\C#N)Nc1ccncc1)C(C)(C)C (stereo not shown)
activity score (human iPSC-derived cardiomyocytes; MyBP-C/MYH ratio, plate-normalised SD score; concentration not given, primary screen; direction not given): 3.3

COc1cnc2cccc(N3CCc4c(cc(Cn5ccnc5C)cc4-c4cn(C)nc4C(F)(F)F)C3=O)c2c1
EC50 (PECAPJ15; cell growth; 120 h): 2.61 µM

CC(C)C(=O)Nc1ncncc1-c1cn([C@@H]2O[C@](F)(COC(=O)C(C)C)[C@@H](OC(=O)C(C)C)[C@H]2OC(=O)C(C)C)cn1
EC50 (Dengue virus; viral replication; Huh-7, DENV-4; 48 h): 49 µM

Oc1ccccc1-c1n[nH]cc1-c1ccnc2ccccc12
log2 fold change (MPS1 (Candida albicans); kinase binding, MIB/MS competition; Candida albicans lysate; 10 µM; relative to: DMSO): 0.79

CC(NCCC(c1ccccc1)c1ccccc1)c1ccccc1 (stereo not shown)
activity score (human iPSC-derived cardiomyocytes; MyBP-C/MYH ratio, plate-normalised SD score; concentration not given, primary screen; direction not given): 4.8

Cn1cc(-c2ccc(-c3cncc(Cl)c3N3CCC4(CCNC4=O)CC3)cc2)cn1
fold change in expression (COLO 205; microarray, refers to: OPTN; concentration not given, 2 h, gene set Optineurin; relative to: untreated cells): 4.15

CCn1cc(-c2cc(Cn3ccoc3=N)cc3c2CCN([C@@H](C)c2cc(OC)ccn2)C3=O)c(C(F)(F)F)n1
EC50 (NCI-H446; cell growth, inhibitor; 120 h): 0.253 µM

CCOC(=O)C1=C(COCCN)NC(C)=C(C(=O)OC)C1c1ccccc1Cl (stereo not shown)
activity score (human iPSC-derived cardiomyocytes; MyBP-C/MYH ratio, plate-normalised SD score; concentration not given, primary screen; direction not given): 3.8

Repeated from above:
CCn1cc(-c2cc(Cn3ccnc3)cc3c2CCN([C@H](c2cc(OC)ccn2)C2CC2)C3=O)c(C(F)(F)F)n1
EC50 (JHOS2; cell growth; 120 h): > 30 µM

Cn1cc(-c2ccc(-c3cncc(Cl)c3N3CCC4(CCNC4=O)CC3)cc2)cn1
fold change in expression (COLO 205; microarray, refers to: OPTN; concentration not given, 2 h, gene set Optineurin; relative to: untreated cells): 4.15
